{"data": "Assay results of several laboratories", "note": "A part holds a random share of what one study measured."}
{"data": "Sample 1", "target": "Sal-like protein 4, full length isoform A (SALL4, Homo sapiens, UniProt Q9UJQ4, residues 1-1053)", "method": "universal PBM", "form": "double-stranded DNA, one strand shown", "matrix": "in vitro", "concentration": "600 nM", "setting": "8-mer, flanks averaged, mean of replicates", "reading": "higher = stronger binding", "chain of UniProt Q9UJQ4 (whole entry, looked up)": "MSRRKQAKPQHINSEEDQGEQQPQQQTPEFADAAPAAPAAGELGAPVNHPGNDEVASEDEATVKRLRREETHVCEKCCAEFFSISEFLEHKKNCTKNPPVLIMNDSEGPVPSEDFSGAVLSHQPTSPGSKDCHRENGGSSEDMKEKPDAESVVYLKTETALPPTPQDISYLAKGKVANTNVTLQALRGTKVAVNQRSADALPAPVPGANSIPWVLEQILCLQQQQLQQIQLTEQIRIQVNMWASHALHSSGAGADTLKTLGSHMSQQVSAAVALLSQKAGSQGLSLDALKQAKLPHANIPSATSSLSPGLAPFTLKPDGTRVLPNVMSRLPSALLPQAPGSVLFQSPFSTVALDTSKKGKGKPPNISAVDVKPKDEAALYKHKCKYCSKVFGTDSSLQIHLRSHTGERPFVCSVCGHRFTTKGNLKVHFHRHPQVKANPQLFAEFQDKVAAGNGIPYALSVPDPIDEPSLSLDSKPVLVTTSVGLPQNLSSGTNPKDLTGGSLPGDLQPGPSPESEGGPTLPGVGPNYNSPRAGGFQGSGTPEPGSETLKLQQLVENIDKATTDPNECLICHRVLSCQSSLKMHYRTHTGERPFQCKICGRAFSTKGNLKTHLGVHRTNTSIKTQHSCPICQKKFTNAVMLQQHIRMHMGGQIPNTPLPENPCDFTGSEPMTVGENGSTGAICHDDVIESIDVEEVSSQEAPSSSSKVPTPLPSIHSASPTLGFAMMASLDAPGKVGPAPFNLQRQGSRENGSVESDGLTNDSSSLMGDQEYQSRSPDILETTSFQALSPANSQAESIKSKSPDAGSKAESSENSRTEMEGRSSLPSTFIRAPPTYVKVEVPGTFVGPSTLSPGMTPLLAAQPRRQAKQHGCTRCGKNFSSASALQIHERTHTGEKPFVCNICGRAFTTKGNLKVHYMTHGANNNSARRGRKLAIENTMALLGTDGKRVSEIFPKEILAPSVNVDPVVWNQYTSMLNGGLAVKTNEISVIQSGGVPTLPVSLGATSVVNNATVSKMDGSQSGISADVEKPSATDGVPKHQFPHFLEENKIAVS"}
{"Oligonucleotide": "AATTACGG", "E-score": 0.112}
{"Oligonucleotide": "CCTATCCA", "E-score": -0.111}
{"Oligonucleotide": "CCCGACCG", "E-score": -0.338}
{"Oligonucleotide": "CCGATGCG", "E-score": -0.241}
{"Oligonucleotide": "GGCGCGAC", "E-score": -0.183}
{"Oligonucleotide": "ATAAGTAT", "E-score": 0.296}
{"Oligonucleotide": "ACAAAGAA", "E-score": 0.258}
{"Oligonucleotide": "GTATTAGA", "E-score": 0.267}
{"Oligonucleotide": "AGTAGCAG", "E-score": 0.0371}
{"Oligonucleotide": "AGCTCAGC", "E-score": -0.256}
{"Oligonucleotide": "TAAAGCTA", "E-score": 0.0847}
{"Oligonucleotide": "AATGGCGC", "E-score": -0.214}
{"Oligonucleotide": "CCTTCTAA", "E-score": 0.109}
{"Oligonucleotide": "TGGAAACA", "E-score": 0.0497}
{"Oligonucleotide": "ACGCGAAG", "E-score": -0.0217}
{"Oligonucleotide": "GCGGTACA", "E-score": -0.162}
{"Oligonucleotide": "TCAGCCAA", "E-score": -0.0384}
{"Oligonucleotide": "ACAAGGGA", "E-score": 0.0319}
{"data": "Sample 2", "target": "Phosphate system positive regulatory protein PHO4, full length, GST-tagged (PHO4, Saccharomyces cerevisiae, UniProt P07270, residues 1-312)", "method": "competition protein-binding microarray", "form": "double-stranded DNA, one strand shown", "matrix": "in vitro", "concentration": "2 µM", "setting": "whole 60-bp probe, lowest competitor level", "added": "Cbf1 competitor, 0.05 µM", "reading": "higher = stronger binding", "shared flanks, not repeated": "… GTCTTGATTCGCTTGACGCTGCTG", "Residues (chain)": "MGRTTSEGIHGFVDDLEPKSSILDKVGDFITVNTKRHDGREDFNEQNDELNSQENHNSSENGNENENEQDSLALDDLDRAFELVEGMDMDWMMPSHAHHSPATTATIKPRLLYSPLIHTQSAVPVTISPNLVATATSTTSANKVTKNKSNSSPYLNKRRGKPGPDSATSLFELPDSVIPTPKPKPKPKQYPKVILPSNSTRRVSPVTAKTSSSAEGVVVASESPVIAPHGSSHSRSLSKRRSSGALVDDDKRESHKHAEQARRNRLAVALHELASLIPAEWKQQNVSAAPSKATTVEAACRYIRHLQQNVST"}
{"Oligonucleotide": "CTTTCCCGATCTTGCCGTGTGGGTGTAGCACATTTG", "fluorescence intensity [a.u.]": 6140}
{"Oligonucleotide": "GAATTGTGGCCGCGACACCTGACAAACAATCCTCAG", "fluorescence intensity [a.u.]": 4390}
{"Oligonucleotide": "AAAGCGGTAATTTGATTGGTGGGTGCAGATATCTAT", "fluorescence intensity [a.u.]": 3960}
{"Oligonucleotide": "CGGGGTTAAGTTTGCGAGGTGGGTGGCTTGCAGCAG", "fluorescence intensity [a.u.]": 4580}
{"Oligonucleotide": "TCTAAATTGGAGCACAGCATGACAGTTGCCACCTCT", "fluorescence intensity [a.u.]": 5510}
{"Oligonucleotide": "AAACATAGGACGGAACACGTGTGAAAGACAAATCTT", "fluorescence intensity [a.u.]": 17100}
{"Oligonucleotide": "CATACCCAACCTTGCGCAGTGGGTGAAGATATTTGT", "fluorescence intensity [a.u.]": 4090}
{"Oligonucleotide": "CATACCCAACCTTGAAGGGTGGGTGAAGATATTTGT", "fluorescence intensity [a.u.]": 3830}
{"Oligonucleotide": "ACCAATGGATGTTAGCACGTGTTTCAACTCAGCGGC", "fluorescence intensity [a.u.]": 16900}
{"Oligonucleotide": "AGGATCTCTTAGGAATTCGTGACGGGGTATCCCATT", "fluorescence intensity [a.u.]": 3660}
{"Oligonucleotide": "GTCCTAGATCAAAGACACCTGACGATGATAGCCATT", "fluorescence intensity [a.u.]": 4080}
{"Oligonucleotide": "CACTGTTCGCTTCGTCATGATCAATGGTGTTACTGA", "fluorescence intensity [a.u.]": 4010}
{"data": "Sample 3", "target": "Histone acetyltransferase KAT6A, both winged helices, GST fusion (KAT6A, Homo sapiens, UniProt Q92794, residues 1-181)", "method": "protein binding microarray", "form": "double-stranded DNA, one strand shown", "matrix": "in vitro", "concentration": "not given", "setting": "8-mer, flanks averaged, mean of 2 arrays, mostly near background", "reference": "not given", "reading": "higher = stronger binding", "Target sequence (chain)": "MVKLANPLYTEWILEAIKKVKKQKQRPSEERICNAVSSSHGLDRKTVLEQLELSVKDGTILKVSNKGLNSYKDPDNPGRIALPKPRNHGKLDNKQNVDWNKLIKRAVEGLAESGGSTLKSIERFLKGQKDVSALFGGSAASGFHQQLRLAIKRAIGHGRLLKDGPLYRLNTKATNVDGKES"}
{"Oligonucleotide": "CATTATGA", "E-score": -0.134}
{"Oligonucleotide": "ATTTTACG", "E-score": 0.0472}
{"Oligonucleotide": "GCAAAGCC", "E-score": -0.0301}
{"Oligonucleotide": "CCAGTACG", "E-score": -0.0442}
{"Oligonucleotide": "ACTTACTG", "E-score": -0.0306}
{"Oligonucleotide": "AGCAAGAG", "E-score": -0.3}
{"Oligonucleotide": "GGGCCTAA", "E-score": -0.0985}
{"Oligonucleotide": "ATACCGTA", "E-score": 0.0943}
{"Oligonucleotide": "GCAGGAGA", "E-score": -0.0615}
{"Oligonucleotide": "AGAAATGC", "E-score": 0.00579}
{"Oligonucleotide": "AAGGAATG", "E-score": -0.0627}
{"Oligonucleotide": "GTGCTGAA", "E-score": -0.142}
{"Oligonucleotide": "AAGGGACG", "E-score": 0.0451}
{"Oligonucleotide": "GTACCGGA", "E-score": 0.17}
{"Oligonucleotide": "AAAATTTT", "E-score": 0.0972}
{"data": "Sample 4", "target": "RING finger protein unkempt homolog, zinc fingers 1-6, GST-SBP tag (UNK, Homo sapiens, UniProt Q9C0B0, residues 30-357)", "method": "RNA Bind-n-Seq", "form": "RNA", "matrix": "in vitro", "concentration": "not given", "setting": "RNA with constant flanks, human and mouse sites, ends assumed", "reference": "input RNA pool", "reading": "higher = stronger binding", "shared flanks, not repeated": "GGGAGUUCUACAGUCCGACGAUC … CAACAGAGGAUUGAGCAUCA", "Residues (chain)": "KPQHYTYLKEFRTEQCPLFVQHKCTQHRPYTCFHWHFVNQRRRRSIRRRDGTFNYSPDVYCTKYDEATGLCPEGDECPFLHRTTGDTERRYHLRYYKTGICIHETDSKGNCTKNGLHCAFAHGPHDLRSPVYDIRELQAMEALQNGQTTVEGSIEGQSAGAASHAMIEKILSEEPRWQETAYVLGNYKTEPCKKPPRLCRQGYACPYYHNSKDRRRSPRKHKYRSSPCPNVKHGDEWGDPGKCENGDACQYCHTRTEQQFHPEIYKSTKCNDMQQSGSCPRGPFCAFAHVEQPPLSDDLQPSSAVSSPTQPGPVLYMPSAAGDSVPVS"}
{"Oligonucleotide": "GCUAGAGAGUUUCUGUUUUUCAGAACGGGUCGUGCUUUUUUAAAUAUUGCUAUUGUUAUUGUCUAAUGUGUUUUUAAGGGUUGGCAGCGGUAUGAGUGGUGGUGGGAAUUAAGAUUAAAC", "bound/input enrichment [ratio]": 1.01}
{"Oligonucleotide": "AGCAGUCAGCCCGCGCGCCGGCCGGCUCCGUUAUGGCGACCCGCAGCCCUGGCGUCGUGAUUAGUGAUGAUGAACCAGGUUAUGACCUUGAUUUAUUUUGCAUACCUAAUCAUUAUGCUG", "bound/input enrichment [ratio]": 0.0899}
{"Oligonucleotide": "ACUUUUUAAGCUGUCAGUGGUAUCAAAUAACUUACCUAGUUGGAGGCAGAUAAAGGAUCCCUUACGUUUUUUCCUAUAAGGCCUAAAUUGAAAUUGUUAACCAAGGAAACAGGGUCAGCC", "bound/input enrichment [ratio]": 0.126}
{"Oligonucleotide": "UCCUUUAUGUAUUCUUCUCUACCGUAUAACACACUGAAACUGUAUCUACUUGCUGUGUUGCAAUAUUUUGCUGCUGGACUUUGACCUACUUGUAUUAUGCAGAAAGUUAAUGCAGAUACC", "bound/input enrichment [ratio]": 0.397}
{"Oligonucleotide": "ACACUUCGCGUUGCGUUUAGACUAUUUAUUACCGGGAUCACAGGCCUGGCCGCGGUAACAGACUUUUACAUGGAAUUGUUUAAUUAUUUGUACUUUUCAUGCCAGAAAAUAAAAGUUCAG", "bound/input enrichment [ratio]": 0.537}
{"Oligonucleotide": "CCUCCUACCAAGGGUCUCCGCAAGGAGGAACGGCCAGGCCCUGGGCCCGGCGAGGUGCGUAUAGCUUUCCGAAUCUCCAAUGUCCGAGAGCCCCAUUCACCAGAUGGCAACUUACCCAAU", "bound/input enrichment [ratio]": 0.12}
{"data": "Sample 5", "target": "Fragile X messenger ribonucleoprotein 1, C-terminal low-complexity region (Fmr1, Mus musculus, UniProt P35922)", "method": "RNA Bind-n-Seq", "form": "RNA", "matrix": "in vitro", "concentration": "200 nM", "setting": "whole 134-nt RNA, ends assumed", "added": "150 mM LiCl", "reference": "input library", "reading": "higher = stronger binding", "all molecules": "7-deaza-guanosine replaces G", "shared flanks, not repeated": "GGGAGUUCUACAGUCCGACGAUC … UGGAAUUCUCGGGUGUCAAGG"}
{"Oligonucleotide": "CACAGACAACACGCACCCACACAGACACAGAGGGAAGGGGUUGGGAUGGGGACAGAAAGCACAGCAGGGCGGGGUAGGACCCCAGCCCCU", "log2 enrichment": 0.364}
{"Oligonucleotide": "AGUCCUGUGCUACACAUCGUAUGUACCGAAUCGGGGUGGGGAAAGGGGUUUUUGGGGAAAGUAUUAUGUUACGCCGUUCGGAUCUGCACU", "log2 enrichment": -0.926}
{"Oligonucleotide": "CUCAAGUCCUGUGCUACACAUCGUAUGUACCGAAUCGGUUUUUGGAGGUUUGGAAAGUAUUAUGUUACGCCGUUCGGAUCUGCACUUCCA", "log2 enrichment": -0.6}
{"Oligonucleotide": "AAGUCCUGUGCUACACAUCGUAUGUACCGAAUCGGGGUGGGGUUUUUGGGGUGGGGAAAGUAUUAUGUUACGCCGUUCGGAUCUGCACUU", "log2 enrichment": -0.329}
{"Oligonucleotide": "CUGUGCUACACAUCGUAUGUACCGAAUCGGGGUUUUUGGGGUUUUUUUGGGGAAAAAGGGGAAAGUAUUAUGUUACGCCGUUCGGAUCUG", "log2 enrichment": -0.02}
{"Oligonucleotide": "UCAAGUCCUGUGCUACACAUCGUAUGUACCGAAUCGGAAAGGGAAAGGAAAGGGGAAAGUAUUAUGUUACGCCGUUCGGAUCUGCACUUC", "log2 enrichment": -0.885}
{"Oligonucleotide": "UUCCUCAAGUCCUGUGCUACACAUCGUAUGUACCGAAUCGGUGGGUGGUGGAAAGUAUUAUGUUACGCCGUUCGGAUCUGCACUUCCAGC", "log2 enrichment": 0.698}
{"Oligonucleotide": "AGUCCUGUGCUACACAUCGUAUGUACCGAAUCGGGGUUUUUGGGGAGGGGAAAGGGGAAAGUAUUAUGUUACGCCGUUCGGAUCUGCACU", "log2 enrichment": 0.0865}
{"data": "Sample 6", "target": "Interferon regulatory factor 3, full length, phosphomimetic (IRF3, Homo sapiens, UniProt Q14653, residues 1-427, S386D/S396D/S398D/S402D/T404D/S405D)", "method": "protein-binding microarray", "form": "double-stranded DNA, one strand shown", "matrix": "in vitro", "concentration": "2540 nM top", "setting": "60-bp whole probe", "added": "salmon DNA 0.4 mg/ml", "reference": "random background probes", "reading": "higher = stronger binding", "shared flanks, not repeated": "GCCTAGCAC … GTCTTGATTCGCTTGACGCTGCTG", "chain of UniProt Q14653 (whole entry, unmodified, looked up)": "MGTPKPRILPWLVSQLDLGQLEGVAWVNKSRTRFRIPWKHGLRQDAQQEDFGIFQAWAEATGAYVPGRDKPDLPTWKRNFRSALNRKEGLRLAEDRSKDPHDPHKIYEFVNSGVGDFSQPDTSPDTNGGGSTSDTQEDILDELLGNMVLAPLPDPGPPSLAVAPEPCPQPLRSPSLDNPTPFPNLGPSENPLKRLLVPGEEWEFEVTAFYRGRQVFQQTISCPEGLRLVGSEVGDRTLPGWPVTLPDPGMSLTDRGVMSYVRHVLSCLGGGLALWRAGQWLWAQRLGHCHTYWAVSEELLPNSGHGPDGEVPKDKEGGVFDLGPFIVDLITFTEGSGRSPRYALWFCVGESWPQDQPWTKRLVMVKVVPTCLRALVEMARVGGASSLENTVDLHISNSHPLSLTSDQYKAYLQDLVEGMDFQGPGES"}
{"Oligonucleotide": "TTAGAACTGGGCACTGGATTAGTGCTA", "fitted relative affinity [z-score]": -0.923}
{"Oligonucleotide": "GCCATTTTCCCTCCCTAATTGTGCTAG", "fitted relative affinity [z-score]": 3.3}
{"Oligonucleotide": "GACGATTTCAGTCTCGACACGTGCTAG", "fitted relative affinity [z-score]": 2.48}
{"Oligonucleotide": "TTAGATTTTTTTTCCTAATTGTGCTAG", "fitted relative affinity [z-score]": 1.72}
{"Oligonucleotide": "GACGGTTTCGACACTGGGGATGTGCTA", "fitted relative affinity [z-score]": 3.24}
{"Oligonucleotide": "TTCTTTATGCACTCTTTACATGTGCTA", "fitted relative affinity [z-score]": 1.02}
{"Oligonucleotide": "GACGTTATCCTACTGCTGACGTGCTAG", "fitted relative affinity [z-score]": 1.27}
{"Oligonucleotide": "GTAAGCAAAAATGATTGGTTGTGCTAG", "fitted relative affinity [z-score]": -0.108}
{"Oligonucleotide": "TTAGGACTTCTTATCCTTTAGTGCTAG", "fitted relative affinity [z-score]": 0.528}
{"Oligonucleotide": "TTAGGTTTCCTTATCCTTTAGTGCTAG", "fitted relative affinity [z-score]": 8.23}
{"Oligonucleotide": "TTAGGTTTCCTTGCCCTTTAGTGCTAG", "fitted relative affinity [z-score]": 4.03}
{"Oligonucleotide": "AGAAATTTTTTTTCTAACTAGTGCTAG", "fitted relative affinity [z-score]": 0.789}
{"note": "A few entries again (sample 3):"}
{"Oligonucleotide": "CATTATGA", "E-score": -0.134}
{"Oligonucleotide": "AGAAATGC", "E-score": 0.00579}
{"Oligonucleotide": "AGCAAGAG", "E-score": -0.3}
{"Oligonucleotide": "GCAAAGCC", "E-score": -0.0301}
{"Oligonucleotide": "AAGGGACG", "E-score": 0.0451}
{"Oligonucleotide": "ATACCGTA", "E-score": 0.0943}
